Experimental data from different studies.
“And” joins repeats or separate records; there may be more than shown. Numbers after ± are the reported error.

| Structure (SMILES) | test | system | conditions | scale | measurement | value |
| --- | --- | --- | --- | --- | --- | --- |
| NC1CCN(C(=O)Oc2ccc(C3CCCC4(C3)OOC3(O4)C4CC5CC(C4)CC3C5)cc2)CC1 (racemic) |  | male Sprague-Dawley rat, plasma | intravenous, 10 mg/kg |  | Vd | 34.4 L/kg |
| N=C(N)NCCC[C@@H](NC(=O)[C@H](N)Cc1c[nH]c2ccccc12)C(=O)N[C@H](CCCCN)C(=O)N[C@H](Cc1c[nH]c2ccccc12)C(=O)N[C@H](CCCNC(=N)N)C(=O)N[C@H](CCCCN)C(=O)N[C@H](Cc1c[nH]c2ccccc12)C(=O)N[C@H](CCCNC(=N)N)C(=O)N[C@H](CCCCN)C(=O)N[C@H](Cc1c[nH]c2ccccc12)C(=O)N[C@H](CCCNC(=N)N)C(=O)N[C@H](CCCCN)C(N)=O |  | mouse, lung | intravenous, 20 mg/kg single dose, 7 days |  | organ index | 0.666 |
| CC(C)[C@H](NC(=O)[C@H](Cc1c[nH]c2ccccc12)NC(=O)[C@H](CCCNC(=N)N)NC(=O)[C@H](CCCNC(=N)N)NC(=O)[C@@H](NC(=O)[C@@H](NC(=O)[C@H](CCCNC(=N)N)NC(=O)[C@@H](NC(=O)[C@@H](NC(=O)[C@H](CCCNC(=N)N)NC(=O)[C@H](CCCNC(=N)N)NC(=O)[C@@H](NC(=O)[C@H](Cc1c[nH]c2ccccc12)NC(=O)[C@H](CCCNC(=N)N)NC(=O)[C@H](CCCNC(=N)N)NC(=O)[C@@H](NC(=O)[C@H](CCCNC(=N)N)NC(=O)[C@H](CCCNC(=N)N)NC(=O)[C@@H](NC(=O)[C@H](Cc1c[nH]c2ccccc12)NC(=O)[C@H](CCCNC(=N)N)NC(=O)[C@@H](N)CCCNC(=N)N)C(C)C)C(C)C)C(C)C)C(C)C)C(C)C)C(C)C)C(C)C)C(=O)N[C@@H](CCCNC(=N)N)C(=O)N[C@@H](CCCNC(=N)N)C(=O)O | measured: lung | mice | intravenous, 30 mg/kg, after 2 doses, recovery | relative to: body weight | organ weight | 0.96 ± 0.06% |
| CC(C)(c1cc(Br)c(O)c(Br)c1)c1cc(Br)c(O)c(Br)c1 | ultrafiltration | cow milk whey | 20 nM nominal in whole milk |  | final permeate concentration | 0.69 nM |
| O=C1NC2(CC2)COc2ncc(F)cc2[C@H]2COCCN2c2ccn3ncc1c3n2 |  | Sprague-Dawley rat, male, blood | oral, 2.5 mg/kg/day, 4 weeks, end of treatment, subacute toxicity |  | haematocrit | 44.9 ± 2.6% |
| CC[C@H](C)[C@H](NC(=O)[C@H](C)NC(=O)[C@H](CCCCN)NC(=O)[C@H](CCCCN)NC(=O)[C@@H](N)CCCNC(=N)N)C(=O)N[C@@H](CCCCN)C(=O)N[C@@H](CC(C)C)C(=O)N[C@H](C(=O)N[C@@H](CCCCN)C(=O)N[C@@H](CCCCN)C(=O)N[C@@H](CC(C)C)C(=O)N[C@H](C(=O)N[C@@H](CCCCN)C(=O)N[C@@H](CCCCN)C(=O)N[C@@H](CC(C)C)C(=O)N[C@@H](CCCCN)C(=O)N[C@@H](CCCCN)C(=O)N[C@@H](C)C(=O)N[C@@H](CC(C)C)C(=O)N[C@@H](CCCCN)C(=O)O)C(C)C)C(C)C |  | human red blood cells | 64 mg/L, 1 h, mean of replicates |  | hemolysis | 8.08% |
| C=Cc1c(C)c2cc3nc(c(CC(=O)[O-])c4[n-]c(cc5nc(cc1[n-]2)C(C)=C5CC)c(C)c4C(=O)[O-])C(CCC(=O)[O-])C3C.[Cu+2].[Na+].[Na+].[Na+] (centres unmarked) |  | Wistar rat, female | oral, 500 mg/kg daily, 28 days |  | blood urea nitrogen | 19.2 ± 1.6 mg/dL |
| C=Cc1c(C)c2cc3nc(c(CC(=O)O)c4[nH]c(cc5nc(cc1[nH]2)C(C)=C5CC)c(C)c4C(=O)O)[C@@H](CCC(=O)NCCCC[C@H](NC(C)=O)C(=O)N[C@@H](Cc1ccccc1)C(=O)N[C@@H](Cc1ccccc1)C(=O)N[C@H](C(=O)N[C@@H](CC(C)C)C(=O)N[C@@H](CCCCN)C(=O)N[C@@H](CO)C(=O)NCC(=O)N[C@@H](CCC(N)=O)C(=O)N[C@@H](Cc1ccc(O)cc1)C(=O)N[C@@H](C)C(=O)N[C@@H](CO)C(=O)N[C@@H](Cc1ccc(O)cc1)C(=O)N[C@@H](Cc1c[nH]cn1)C(=O)N[C@@H](CS)C(=O)N[C@@H](Cc1c[nH]c2ccccc12)C(=O)N[C@@H](CS)C(=O)N[C@@H](Cc1c[nH]c2ccccc12)C(=O)N[C@@H](CCCNC(=N)N)C(=O)N[C@@H](CC(=O)O)C(=O)N1CCC[C@H]1C(=O)NCC(=O)N[C@@H](CCCNC(=N)N)C(=O)N[C@@H](CO)C(=O)NCC(=O)NCC(=O)N[C@@H](CO)C(=O)N[C@@H](CCCCN)C(N)=O)C(C)C)[C@@H]3C |  | mouse, blood | 2 h |  | blood concentration | 129 µg/mL |
| CC[C@H](C)[C@H](NC(=O)[C@H](CCCCN)NC(=O)CNC(=O)[C@H](CC(C)C)NC(=O)[C@H](Cc1ccccc1)NC(=O)[C@H](CCCCN)NC(=O)[C@H](CO)NC(=O)[C@H](Cc1ccccc1)NC(=O)[C@H](Cc1c[nH]c2ccccc12)NC(=O)[C@H](CCC(N)=O)NC(=O)[C@@H](NC(=O)[C@H](Cc1ccccc1)NC(=O)CCCCCNC(=O)CN1CCN(CC(=O)O)CCN(CC(=O)O)CCN(CC(=O)O)CC1)C(C)C)C(=O)N[C@@H](CCC(=O)O)C(=O)N1CCC[C@H]1C(=O)N[C@@H](CC(=O)O)C(=O)N[C@H](C(=O)N[C@@H](CO)C(=O)N[C@@H](CCC(N)=O)C(=O)N[C@H](C(=O)N[C@@H](CCC(N)=O)C(=O)N[C@@H](CC(=O)O)C(=O)N1CCC[C@H]1C(=O)N[C@@H](CC(N)=O)C(=O)N[C@@H](CC(=O)O)C(=O)N[C@@H](CCC(N)=O)C(=O)N[C@@H](Cc1ccc(O)cc1)C(=O)N[C@@H](CCC(=O)O)C(=O)N1CCC[C@H]1C(=O)N[C@@H](Cc1ccccc1)C(=O)O)C(C)C)C(C)C [copper-64 labelled] |  | C57BL/6 male mouse, tumour-naive, thymus | 1 h |  | tissue uptake | 2.43 ± 0.2 %ID/g |
| Cc1ccc(OCC(=O)N(Cc2cccs2)c2ccn[nH]2)cc1 | in vivo micronucleus | Crl:CD-1(ICR) mice, male, bone marrow polychromatic erythrocytes | oral, 1500 mg/kg/day, 3 days |  | micronucleated PCEs | 0.04 ± 0.02% |
| CCCCCCCCCCCCCCCC(=O)N[C@@H](CCC(=O)NCCCC[C@H](NC(=O)[C@H](CC(=O)O)NC(=O)[C@H](CO)NC(=O)[C@@H](NC(=O)[C@H](Cc1ccccc1)NC(=O)[C@@H](NC(=O)CNC(=O)[C@H](CCC(N)=O)NC(=O)[C@H](C)NC(=O)[C@@H](Cc1ccc(O)cc1)NC(C)=O)[C@@H](C)O)[C@@H](C)O)C(=O)N[C@@H](CO)C(=O)N[C@@H](CCCCN)C(=O)N[C@@H](Cc1ccc(O)cc1)C(=O)N[C@@H](CC(C)C)C(=O)N[C@@H](CC(=O)O)C(=O)N[C@@H](CCC(=O)O)C(=O)N[C@@H](CCCNC(=N)N)C(=O)N[C@@H](C)C(=O)N[C@@H](C)C(=O)N[C@@H](CCC(N)=O)C(=O)N[C@@H](CC(=O)O)C(=O)N[C@@H](Cc1ccccc1)C(=O)N[C@H](C(=O)N[C@@H](CCC(N)=O)C(=O)N[C@@H](Cc1c[nH]c2ccccc12)C(=O)N[C@@H](CC(C)C)C(=O)N[C@@H](CC(C)C)C(=O)N[C@@H](CCC(=O)O)C(=O)NCC(=O)NCC(=O)N1CCC[C@H]1C(=O)N[C@@H](CO)C(=O)N[C@@H](CO)C(=O)NCC(=O)N[C@@H](C)C(=O)N1CCC[C@H]1C(=O)N1CCC[C@H]1C(=O)N1CCC[C@H]1C(=O)N[C@@H](CO)C(N)=O)C(C)C)C(=O)O |  | male Wistar rat, plasma | intravenous, 0.02 mg/kg |  | AUC(0-inf) | 453 ng·h/mL |
| CCCCCCCCCCCCCCCC(=O)N[C@@H](CCC(=O)NCCOCCOCCC(=O)NCCOCCOCCC(=O)NCCCC[C@H](NC(=O)[C@H](CC(=O)O)NC(=O)[C@H](CC(C)C)NC(=O)[C@H](Cc1ccc(O)cc1)NC(=O)[C@H](CCCCN)NC(=O)[C@H](CO)NC(=O)[C@H](Cc1ccc(O)cc1)NC(=O)[C@H](CC(=O)O)NC(=O)[C@H](CO)NC(=O)[C@@H](NC(=O)[C@H](Cc1ccccc1)NC(=O)[C@@H](NC(=O)CNC(=O)[C@H](CCC(N)=O)NC(=O)[C@@H](CO)NC(=O)[C@@H](N)Cc1c[nH]cn1)[C@@H](C)O)[C@@H](C)O)C(=O)N[C@@H](CCCNC(=N)N)C(=O)N[C@@H](CCCNC(=N)N)C(=O)N[C@@H](C)C(=O)N[C@@H](CCC(N)=O)C(=O)N[C@@H](CC(=O)O)C(=O)N[C@@H](Cc1ccccc1)C(=O)N[C@H](C(=O)N[C@@H](CCC(N)=O)C(=O)N[C@@H](Cc1c[nH]c2ccccc12)C(=O)N[C@@H](CC(C)C)C(=O)N[C@@H](CC(C)C)C(=O)N[C@@H](CC(N)=O)C(=O)N[C@H](C(=O)NCC(=O)NCC(=O)N1CCC[C@H]1C(=O)N[C@@H](CO)C(=O)N[C@@H](CO)C(=O)NCC(=O)N[C@@H](C)C(=O)N1CCC[C@H]1C(=O)N1CCC[C@H]1C(=O)N1CCC[C@H]1C(=O)N[C@@H](CO)C(N)=O)[C@@H](C)O)C(C)C)C(=O)O |  | rhesus monkey, male | subcutaneous, 20 µg/kg once daily, 28 days |  | total bilirubin | 4 ± 1.3 µmol/L |
| CC(=O)N[C@H](C(=O)N[C@@H](CCCC(=O)OC(C)(C)C)C(=O)N[C@@H](CCC1CCCCC1)C(=O)N[C@@H](CC(=O)O)C(=O)COC(=O)c1c(C)cccc1C)C(C)(C)C |  | C57BL/6N mouse, serum | concentration not given, compound alone |  | ALT | 318 U/L and 408 U/L and 444 U/L and 270 U/L and 546 U/L and 550 U/L |
| C#Cc1c(F)ccc2cc(O)cc(-c3ncc4c(N5CC6CCC(C5)N6C(=O)OC(C)OC(=O)C5CCCC5)nc(OC[C@@]56CCCN5C[C@H](F)C6)nc4c3F)c12 (some centres unmarked) | chemical stability | simulated intestinal fluid | 1 µM, 30 min |  | compound remaining | 88.9% |
| CC(C)[C@@H]1NC(=O)CNC(=O)[C@H](CC(N)=O)NC(=O)[C@H](CCCNC(=N)N)NC(=O)[C@H](Cc2ccc(O)cc2)NC(=O)[C@H](C(C)C)NC(=O)[C@@H](NC(=O)[C@@H](NC(=O)[C@H](CC(N)=O)NC(=O)[C@H](Cc2c[nH]c3ccccc23)NC(=O)[C@H](C)NC(=O)[C@H](Cc2ccccc2)NC(=O)CNC(=O)[C@H](CCCCN)NC(=O)[C@H](Cc2ccccc2)NC(=O)[C@H](Cc2ccccc2)NC(=O)[C@H](CCCCN)NC(=O)OCC2c3ccccc3-c3ccccc32)C(C)C)CSSC[C@@H](C(=O)N[C@@H](Cc2c[nH]cn2)C(=O)N[C@@H](CCCNC(=N)N)C(=O)N[C@@H](CCCNC(=N)N)C(=O)N[C@@H](C)C(=O)N[C@@H](CC(N)=O)C(N)=O)NC(=O)[C@H](C(C)C)NC(=O)[C@H](CCCNC(=N)N)NC1=O |  | ICR mice, serum | intraperitoneal, 5 mg/kg, day 5 |  | phosphorus | 3.29 ± 0.17 mmol/L |
| CC(=O)NCCCC[C@@H]1NC(=O)[C@H](Cc2c[nH]c3c(C)cccc23)NC(=O)[C@H]([C@@H](C)O)NC(=O)[C@H](CC(N)=O)NC(=O)[C@@H](NC(C)=O)C(C)(C)SSC(C)(C)[C@@H](C(=O)N[C@@H](Cc2ccc(OCCN)cc2)C(=O)N[C@@H](Cc2ccc3ccccc3c2)C(=O)NC2(C(=O)N[C@@H](CCC(=O)O)C(=O)N[C@@H](CC(N)=O)C(=O)N[C@@H](Cc3cccnc3)C(=O)N(C)CC(N)=O)CCOCC2)NC1=O |  | cynomolgus monkey, patellar synovium | intravenous, 1 mg/kg |  | tissue to plasma ratio | 100% |
| O=C(NCc1ccc(Cl)cn1)C(=O)C(Cc1ccccc1)NC(=O)C1CC(F)CN1C(=O)C(NC(=O)C1CCC(F)(F)CC1)C1CCCCC1 (centres unmarked) |  | dog |  |  | oral bioavailability | 132% |

For quick reference, copied from above:
| Structure (SMILES) | test | system | conditions | scale | measurement | value |
| --- | --- | --- | --- | --- | --- | --- |
| CCCCCCCCCCCCCCCC(=O)N[C@@H](CCC(=O)NCCCC[C@H](NC(=O)[C@H](CC(=O)O)NC(=O)[C@H](CO)NC(=O)[C@@H](NC(=O)[C@H](Cc1ccccc1)NC(=O)[C@@H](NC(=O)CNC(=O)[C@H](CCC(N)=O)NC(=O)[C@H](C)NC(=O)[C@@H](Cc1ccc(O)cc1)NC(C)=O)[C@@H](C)O)[C@@H](C)O)C(=O)N[C@@H](CO)C(=O)N[C@@H](CCCCN)C(=O)N[C@@H](Cc1ccc(O)cc1)C(=O)N[C@@H](CC(C)C)C(=O)N[C@@H](CC(=O)O)C(=O)N[C@@H](CCC(=O)O)C(=O)N[C@@H](CCCNC(=N)N)C(=O)N[C@@H](C)C(=O)N[C@@H](C)C(=O)N[C@@H](CCC(N)=O)C(=O)N[C@@H](CC(=O)O)C(=O)N[C@@H](Cc1ccccc1)C(=O)N[C@H](C(=O)N[C@@H](CCC(N)=O)C(=O)N[C@@H](Cc1c[nH]c2ccccc12)C(=O)N[C@@H](CC(C)C)C(=O)N[C@@H](CC(C)C)C(=O)N[C@@H](CCC(=O)O)C(=O)NCC(=O)NCC(=O)N1CCC[C@H]1C(=O)N[C@@H](CO)C(=O)N[C@@H](CO)C(=O)NCC(=O)N[C@@H](C)C(=O)N1CCC[C@H]1C(=O)N1CCC[C@H]1C(=O)N1CCC[C@H]1C(=O)N[C@@H](CO)C(N)=O)C(C)C)C(=O)O |  | male Wistar rat, plasma | intravenous, 0.02 mg/kg |  | AUC(0-inf) | 453 ng·h/mL |
| O=C(NCc1ccc(Cl)cn1)C(=O)C(Cc1ccccc1)NC(=O)C1CC(F)CN1C(=O)C(NC(=O)C1CCC(F)(F)CC1)C1CCCCC1 (centres unmarked) |  | dog |  |  | oral bioavailability | 132% |
